Experimental data from different studies.
Protocols differ between the studies behind these lines.
Organism: Escherichia coli

For C[C@@](O)(C(F)F)[C@H](NC(=O)c1ccc(C#CC#CC2CC2)cc1)C(=O)NO, the survival was 90% (NDM-1, infected animal; 10 mg/kg every 12 h).
CC(C)C[C@H](NC(=O)[C@H](CCCNC(=N)N)NC(=O)CNC(=O)CNC(=O)[C@@H](N)CCCNC(=N)N)C(=O)N[C@H]1CSSC[C@@H](C(=O)N[C@H](C(=O)NCC(=O)N[C@@H](CCCNC(=N)N)C(=O)O)C(C)C)NC(=O)[C@H](C(C)C)NC(=O)[C@@H]2CSSC[C@H](NC(=O)[C@H](Cc3ccc(O)cc3)NC1=O)C(=O)N[C@@H](CCCNC(=N)N)C(=O)N[C@@H](CCCNC(=N)N)C(=O)N[C@@H](CCCNC(=N)N)C(=O)N[C@@H](Cc1ccccc1)C(=O)N2: “time to near complete killing” no more than 30 min (kill curve; W3110; 8 µg/mL).
ONCc1cc(C(F)(F)F)cc(C(F)(F)F)c1 has a biofilm removal of greater than 50% (preformed static biofilm; 2 x MIC, 72 h).
For O=C(O)[C@@H]1Cc2c([nH]c3ccccc23)[C@@H](c2ccc(Cl)cc2F)N1, the growth inhibition was 0% (BL21(DE3); 250 µM, 18 h).
CC[C@H](C)[C@H](NC(=O)[C@H](CCCCN)NC(=O)[C@H](CCCCN)NC(=O)[C@H](CC(C)C)NC(=O)[C@H](CCCCN)NC(=O)[C@H](CCC(=O)O)NC(=O)[C@H](CCCCN)NC(=O)[C@@H](NC(=O)[C@H](CCCCN)NC(=O)[C@H](CC(N)=O)NC(=O)[C@H](CCCNC(=N)N)NC(=O)[C@H](Cc1ccccc1)NC(=O)[C@H](CCCCN)NC(=O)[C@H](CCCNC(=N)N)NC(=O)[C@H](CC(C)C)NC(=O)[C@H](CCCNC(=N)N)NC(=O)[C@H](CCCCN)NC(=O)[C@H](CCCNC(=N)N)NC(=O)[C@H](CC(C)C)NC(=O)CN)[C@@H](C)CC)C(=O)NCC(=O)N[C@@H](CCC(N)=O)C(=O)N[C@@H](CCCCN)C(=O)N[C@H](C(=O)N[C@@H](CCC(N)=O)C(=O)NCC(=O)N[C@@H](Cc1ccccc1)C(=O)N[C@H](C(=O)N1CCC[C@H]1C(=O)N[C@@H](CCCCN)C(=O)N[C@@H](CC(C)C)C(=O)N[C@@H](C)C(=O)N1CCC[C@H]1C(=O)N[C@@H](CCCNC(=N)N)C(=O)N[C@H](C(=O)N[C@@H](CC(=O)O)C(=O)N[C@@H](Cc1ccc(O)cc1)C(=O)O)[C@@H](C)O)C(C)C)[C@@H](C)CC has a lethal concentration of 2.19 µM (inhibition zone; D. J45b).
Under “MIC of ampicillin”, C[C@]1(COC(=O)c2ccc(O)c(O)c2)[C@H](C(=O)O)N2C(=O)/C(=C/c3ccccn3)[C@H]2S1(=O)=O is recorded as 4 µg/mL (broth microdilution; MG1655 expressing CTX-M-14; 16 µg/mL, 20 h, 37 °C).
CCCCCCCCCCCCCC(=O)N[C@@H](Cc1ccc2ccccc2c1)C(=O)N[C@@H](CCCCN)C(=O)N[C@@H](CCCCN)C(=O)N[C@@H](CCCCN)C(=O)N[C@@H](CCCCN)C(N)=O gave an MBC of 64 µg/mL (K12).
For CCCCCC(=O)NCC(=O)N[C@@H](CC(C)C)C(=O)N[C@@H](CC(C)C)C(=O)N[C@@H](CCCCN)C(=O)N[C@@H](CCCNC(=N)N)C(=O)N[C@H](C(=O)N[C@@H](CCCCN)C(=O)N[C@H](C(=O)N[C@@H](CC(C)C)C(=O)N[C@@H](CC(C)C)C(=O)NCCCC[C@H](NC(=O)[C@H](CCCCNC(=O)[C@H](CC(C)C)NC(=O)[C@H](CC(C)C)NC(=O)[C@@H](NC(=O)[C@H](CCCCN)NC(=O)[C@@H](NC(=O)[C@H](CCCNC(=N)N)NC(=O)[C@H](CCCCN)NC(=O)[C@H](CC(C)C)NC(=O)[C@H](CC(C)C)NC(=O)CNC(=O)CCCCC)[C@@H](C)CC)[C@@H](C)O)NC(=O)[C@H](CC(C)C)NC(=O)[C@H](CC(C)C)NC(=O)[C@@H](NC(=O)[C@H](CCCCN)NC(=O)[C@@H](NC(=O)[C@H](CCCNC(=N)N)NC(=O)[C@H](CCCCN)NC(=O)[C@H](CC(C)C)NC(=O)[C@H](CC(C)C)NC(=O)CNC(=O)CCCCC)[C@@H](C)CC)[C@@H](C)O)C(N)=O)[C@@H](C)O)[C@@H](C)CC, the FIC index was 0.25 (checkerboard; ATCC 25922; added: rifampicin).
CCCCCCCCCCCCCC(=O)N[C@@H](CCCCN)C(=O)N[C@@H](CCCCN)C(=O)N[C@@H](CCCCN)C(=O)N[C@@H](CCCCN)C(N)=O has an MBC of 128 µg/mL (K12).
N[C@@H](CN[C@@H](CN[C@@H](CC(=O)O)C(=O)O)C(=O)O)C(=O)O has a rescue concentration of 8 µg/mL (expressing blaNDM-1, Mueller-Hinton broth; added: meropenem 2 µg/mL).
CC[C@H](C)[C@H](NC(=O)[C@H](CCCCN)NC(=O)[C@H](CCCCN)NC(=O)[C@H](CC(C)C)NC(=O)[C@H](CCCCN)NC(=O)[C@H](CCC(=O)O)NC(=O)[C@H](CCCCN)NC(=O)[C@@H](NC(=O)[C@H](CCCCN)NC(=O)[C@H](CC(N)=O)NC(=O)[C@H](CCCNC(=N)N)NC(=O)[C@H](Cc1ccccc1)NC(=O)[C@H](CCCCN)NC(=O)[C@H](CCCNC(=N)N)NC(=O)[C@H](CC(C)C)NC(=O)[C@H](CCCNC(=N)N)NC(=O)[C@H](CCCCN)NC(=O)[C@H](CCCNC(=N)N)NC(=O)[C@H](CC(C)C)NC(=O)[C@@H](N)CCCNC(=N)N)[C@@H](C)CC)C(=O)NCC(=O)N[C@@H](CCC(N)=O)C(=O)N[C@@H](CCCCN)C(=O)N[C@H](C(=O)N[C@@H](CCC(N)=O)C(=O)NCC(=O)N[C@@H](Cc1ccccc1)C(=O)N[C@H](C(=O)N1CCC[C@H]1C(=O)N[C@@H](CCCCN)C(=O)N[C@@H](CC(C)C)C(=O)N[C@@H](CCC(N)=O)C(=O)N1CCC[C@H]1C(=O)N[C@@H](CO)C(=O)N[C@@H](CCCCN)C(=O)N[C@@H](CCC(N)=O)C(=O)N[C@@H](CO)C(=O)O)C(C)C)[C@@H](C)CC gave a lethal concentration of 5.23 µM (inhibition zone; D. J45b).
CC(CCCOC(=O)CCC[N+](C)(C)C)C1CCC2C3CCC4CC(OC(=O)CCC[N+](C)(C)C)CCC4(C)C3CCC12C (stereo not shown) gave a selectivity index of 205 (ATCC 25922; baseline: HC50 over MIC).
The FIC index of CC[C@H](C)[C@H](NC(=O)[C@H](CCCNC(=N)N)NC(=O)[C@H](CCCCN)NC(=O)[C@H](CC(C)C)NC(=O)[C@H](CC(C)C)NC(=O)CN)C(=O)N[C@@H](CCCCN)C(=O)N[C@H](C(=O)N[C@@H](CC(C)C)C(=O)N[C@@H](CC(C)C)C(=O)NCCCC[C@H](NC(=O)[C@H](CC(C)C)NC(=O)[C@H](CC(C)C)NC(=O)[C@@H](NC(=O)[C@H](CCCCN)NC(=O)[C@@H](NC(=O)[C@H](CCCNC(=N)N)NC(=O)[C@H](CCCCN)NC(=O)[C@H](CC(C)C)NC(=O)[C@H](CC(C)C)NC(=O)CN)[C@@H](C)CC)[C@@H](C)O)C(=O)NCCCC[C@H](NC(=O)[C@H](CCCCNC(=O)[C@H](CC(C)C)NC(=O)[C@H](CC(C)C)NC(=O)[C@@H](NC(=O)[C@H](CCCCN)NC(=O)[C@@H](NC(=O)[C@H](CCCNC(=N)N)NC(=O)[C@H](CCCCN)NC(=O)[C@H](CC(C)C)NC(=O)[C@H](CC(C)C)NC(=O)CN)[C@@H](C)CC)[C@@H](C)O)NC(=O)[C@H](CC(C)C)NC(=O)[C@H](CC(C)C)NC(=O)[C@@H](NC(=O)[C@H](CCCCN)NC(=O)[C@@H](NC(=O)[C@H](CCCNC(=N)N)NC(=O)[C@H](CCCCN)NC(=O)[C@H](CC(C)C)NC(=O)[C@H](CC(C)C)NC(=O)CN)[C@@H](C)CC)[C@@H](C)O)C(N)=O)[C@@H](C)O is reported as 0.312 (checkerboard; ATCC 25922; added: gentamicin).
CC[C@H](C)[C@H](NC(=O)[C@H](CO)NC(=O)[C@H](CO)NC(=O)[C@H](Cc1ccccc1)NC(=O)CN)C(=O)N[C@@H](Cc1ccccc1)C(=O)N[C@@H](CCCNC(=N)N)C(N)=O gave an MBC of greater than 128 µM (ATCC 8739; added: 2.5 mM CaCl2).
The lethal concentration of CC[C@H](C)[C@H](NC(=O)[C@H](CCCCN)NC(=O)[C@H](CCCCN)NC(=O)[C@H](CC(C)C)NC(=O)[C@H](CCCCN)NC(=O)[C@H](CCC(=O)O)NC(=O)[C@H](CCCCN)NC(=O)[C@@H](NC(=O)[C@H](CCCCN)NC(=O)[C@H](CC(N)=O)NC(=O)[C@H](CCCNC(=N)N)NC(=O)[C@H](Cc1ccccc1)NC(=O)[C@H](CCCCN)NC(=O)[C@H](CCCNC(=N)N)NC(=O)[C@H](CC(C)C)NC(=O)[C@H](CCCNC(=N)N)NC(=O)[C@H](CCCCN)NC(=O)[C@H](CCCNC(=N)N)NC(=O)[C@H](CC(C)C)NC(=O)[C@@H](N)CC(C)C)[C@@H](C)CC)C(=O)NCC(=O)N[C@@H](CCC(N)=O)C(=O)N[C@@H](CCCCN)C(=O)N[C@H](C(=O)N[C@@H](CCC(N)=O)C(=O)NCC(=O)N[C@@H](Cc1ccccc1)C(=O)N[C@H](C(=O)N1CCC[C@H]1C(=O)N[C@@H](CCCCN)C(=O)N[C@@H](CC(C)C)C(=O)N[C@H](C(=O)N1CCC[C@H]1C(=O)N[C@@H](CCCNC(=N)N)C(=O)N[C@H](C(=O)N[C@@H](CCC(=O)O)C(=O)N[C@@H](CO)C(=O)O)[C@@H](C)O)C(C)C)C(C)C)[C@@H](C)CC is reported as 1.95 µM (inhibition zone; Am. J23a).
CCCCCC(=O)NCC(=O)N[C@@H](CC(C)C)C(=O)N[C@@H](CC(C)C)C(=O)N[C@@H](CCCCN)C(=O)N[C@@H](CCCNC(=N)N)C(=O)N[C@H](C(=O)N[C@@H](CCCCN)C(=O)N[C@H](C(=O)N[C@@H](CC(C)C)C(=O)N[C@@H](CC(C)C)C(=O)NCCCC[C@H](NC(=O)[C@H](CC(C)C)NC(=O)[C@H](CC(C)C)NC(=O)[C@@H](NC(=O)[C@H](CCCCN)NC(=O)[C@@H](NC(=O)[C@H](CCCNC(=N)N)NC(=O)[C@H](CCCCN)NC(=O)[C@H](CC(C)C)NC(=O)[C@H](CC(C)C)NC(=O)CNC(=O)CCCCC)[C@@H](C)CC)[C@@H](C)O)C(N)=O)[C@@H](C)O)[C@@H](C)CC gave an FIC index of 0.375 (checkerboard; ATCC 25922; added: gentamicin).

Excerpt of the above:
CC(CCCOC(=O)CCC[N+](C)(C)C)C1CCC2C3CCC4CC(OC(=O)CCC[N+](C)(C)C)CCC4(C)C3CCC12C (stereo not shown) gave a selectivity index of 205 (ATCC 25922; baseline: HC50 over MIC).
Under “MIC of ampicillin”, C[C@]1(COC(=O)c2ccc(O)c(O)c2)[C@H](C(=O)O)N2C(=O)/C(=C/c3ccccn3)[C@H]2S1(=O)=O is recorded as 4 µg/mL (broth microdilution; MG1655 expressing CTX-M-14; 16 µg/mL, 20 h, 37 °C).
